Published values pooled from the literature.
A part holds a random share of what one study measured. Changes are numbered by the printed parent chain.

Sample 1
Target: Sal-like protein 4, full length isoform A (SALL4, Homo sapiens, UniProt Q9UJQ4, residues 1-1053)
Chain of UniProt Q9UJQ4 (whole entry, looked up): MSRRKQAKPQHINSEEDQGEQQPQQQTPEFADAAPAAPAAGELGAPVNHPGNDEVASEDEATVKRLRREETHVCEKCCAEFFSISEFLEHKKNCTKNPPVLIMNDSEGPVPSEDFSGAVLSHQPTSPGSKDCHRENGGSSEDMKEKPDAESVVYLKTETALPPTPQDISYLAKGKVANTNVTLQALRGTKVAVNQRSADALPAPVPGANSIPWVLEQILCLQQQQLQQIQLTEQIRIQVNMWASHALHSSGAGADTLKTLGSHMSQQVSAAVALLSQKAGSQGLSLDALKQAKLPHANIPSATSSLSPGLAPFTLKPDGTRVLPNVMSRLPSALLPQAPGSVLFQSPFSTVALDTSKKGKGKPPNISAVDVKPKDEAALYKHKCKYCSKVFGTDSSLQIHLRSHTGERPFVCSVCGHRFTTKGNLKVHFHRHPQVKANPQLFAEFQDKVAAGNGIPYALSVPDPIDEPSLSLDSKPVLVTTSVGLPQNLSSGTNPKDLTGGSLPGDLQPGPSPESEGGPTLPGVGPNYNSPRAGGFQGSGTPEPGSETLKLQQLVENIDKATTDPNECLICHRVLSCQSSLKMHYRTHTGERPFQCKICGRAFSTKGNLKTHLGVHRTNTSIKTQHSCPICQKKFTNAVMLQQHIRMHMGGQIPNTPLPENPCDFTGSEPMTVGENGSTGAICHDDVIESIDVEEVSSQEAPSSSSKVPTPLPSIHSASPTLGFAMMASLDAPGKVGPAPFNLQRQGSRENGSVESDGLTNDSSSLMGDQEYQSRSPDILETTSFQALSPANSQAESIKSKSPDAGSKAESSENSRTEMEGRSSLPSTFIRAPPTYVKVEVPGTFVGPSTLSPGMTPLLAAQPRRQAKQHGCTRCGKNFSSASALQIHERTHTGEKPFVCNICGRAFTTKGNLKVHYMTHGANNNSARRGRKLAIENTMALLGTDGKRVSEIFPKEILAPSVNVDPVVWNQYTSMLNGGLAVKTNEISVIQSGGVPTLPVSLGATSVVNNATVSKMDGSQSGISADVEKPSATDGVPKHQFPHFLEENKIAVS
Technique: universal PBM
Form: double-stranded DNA, one strand shown
Sample: in vitro
Concentration: 600 nM
Setting: 8-mer, flanks averaged, mean of replicates
Direction: higher = stronger binding
| Oligonucleotide | E-score |
| --- | --- |
| CAAAAGCG | -0.0986 |
| CTTAGAGA | -0.0151 |
| GCGGCCGC | -0.384 |
| GATGCGGC | -0.274 |
| GGCCTCCA | -0.193 |
| AGGAGGAT | -0.0671 |
| AAAGGAAG | 0.0384 |
| GGTAGGAC | -0.2 |
| GAGATGCA | -0.0172 |
| ACCTCCCG | -0.26 |
| ATAGTTGA | 0.311 |
| ACGGCGAG | -0.227 |
| CCGCGTCA | -0.274 |
| CCTAGAAC | -0.156 |
| AGCGCGGA | -0.201 |
| GGCATCGA | -0.151 |

Sample 2
Target: ABI1, truncated, D143A, DHFR fusion (Arabidopsis thaliana)
Technique: DHFR PCA, deep sequencing
Sample: yeast
Setting: methotrexate growth selection, single substitutions
Added: (+)-ABA 0.0091 µM
Reference: wild-type fitted maximum
Direction: higher = stronger binding
Starting sequence: PYL1, truncated, DHFR fusion (Arabidopsis thaliana); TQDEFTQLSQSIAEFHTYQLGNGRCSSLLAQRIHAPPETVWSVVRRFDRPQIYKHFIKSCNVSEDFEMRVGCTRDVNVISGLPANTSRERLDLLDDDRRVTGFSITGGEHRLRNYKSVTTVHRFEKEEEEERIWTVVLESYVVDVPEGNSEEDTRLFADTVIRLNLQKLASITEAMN
| Variant | relative binding score [%] |
| --- | --- |
| P37S | 2.67 |
| D92L | 2.7 |
| V62A | 4 |
| L138I | 6.08 |
| P50Q | -8.49 |
| A35M | -3.4 |
| D144V | 3.3 |
| N114L | -2.49 |
| N77G | 16 |
| S63R | 19.5 |
| E127H | 50.8 |
| V44E | -2.7 |
| F124I | 61.5 |
| E125D | 9.12 |
| R74L | -3.55 |
| S117D | 2.15 |
| E109F | -10.8 |

Sample 3
Target: Hepatocyte nuclear factor 3-alpha (Foxa1, Mus musculus, UniProt P35582, residues 1-468, full length assumed)
Chain of UniProt P35582 (whole entry, looked up): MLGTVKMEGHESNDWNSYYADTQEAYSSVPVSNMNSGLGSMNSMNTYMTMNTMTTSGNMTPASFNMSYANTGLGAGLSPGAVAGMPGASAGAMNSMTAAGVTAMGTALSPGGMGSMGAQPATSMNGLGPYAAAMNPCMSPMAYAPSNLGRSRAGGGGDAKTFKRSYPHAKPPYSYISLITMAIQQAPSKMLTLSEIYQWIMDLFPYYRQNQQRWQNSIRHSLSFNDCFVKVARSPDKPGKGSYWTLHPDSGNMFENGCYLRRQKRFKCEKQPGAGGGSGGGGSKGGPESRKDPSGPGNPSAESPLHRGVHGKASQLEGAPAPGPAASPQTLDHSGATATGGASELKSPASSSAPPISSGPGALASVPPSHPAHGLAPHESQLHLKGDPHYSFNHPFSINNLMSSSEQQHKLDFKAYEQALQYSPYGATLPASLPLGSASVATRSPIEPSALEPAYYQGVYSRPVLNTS
Technique: EMSA with sequencing
Form: double-stranded DNA, one strand shown
Sample: in vitro
Concentration: 10 and 20 nM
Setting: whole designed probe, mean of two concentrations, ends assumed
Reference: negative control set to 0
Direction: higher = stronger binding
All sequences stand within: GTGAGCGGTGCCCATTGATGGGGAAC … TTTCACTGGGATCGTGGGGAC
| Oligonucleotide | normalised bound fraction [ratio] |
| --- | --- |
| TAAGCAAATACCATGACATAAATTTCTTCTGTTGACCACACTGGCTGTTTAACACAGCTCTAGTGACTTCATGGGGCTGAATGAGTTTTCGATGTTTACTTAGCTGGTGGGCCTAATCAGTGTCATCATCTTTTTCATATGACCAGTGAACAGTCCATAGCTTGCTACTCAAAGCGTGATCCACAGGCCATCC | 0.502 |
| TTTCCAGCCCTTAGTTTCTGGCATTTAACCTGACTCTGGTCCCTGAATGGCATGGGAGTGCTTTCAACCACAGGTTTCCACATTCATGCAAAAGCAAACAAGTGTGATCTACCTGACTCATTCAGAGATCTTTATTTGCTTTGTGTTTCCAATGGAGAAAGAGCTTGGGAAGGGAGGATCCTAATTGTCTAAA | 0.458 |
| ATATTCAGCAGAGTGGTCCTAGGTAGAACATTCTGTGTCAAAATATCAAAAGGCATTGACAAGAGAAATCGACAGAGAATTAGGTTAGCAGAGTAAACAGGTATTCTGTAACCTTCTCAAGTGCTGTGCCTGCTTAGGGAAATACTATTCTTATAAAGTCTTATTCTTCCGCATAATGAATAGTCATTTCCAC | 0.0896 |
| GCGTCCCCGCCCAGGGCAAAGCCAGGACAAGGCCTTATATATAGGCCAGGAGAGGGGAGGGCGGTGGCTCTCTGCTGGGCCGCCAGACGGAAGGTAAACAGCGCCGGGGACTGGTAGCTCCTGTCTCCAGGCAGGAATGCACAGGCCGCGCCTGAGGCAGGTGCGTCCCCAGGGAGGGTTCTGCCCTCTGAAG | 0.132 |
| ATCTTCCCCCTCTTCCTTGCCCCACCAGCTCACCTACGGGGGTTATTTGCAGATAGGAAAATAAATAAAGCCGGCATTCGTTAACCCTCTTCACGCGCATACTGCTGTTTGCTCTGCATGAATCATGGTCCTTACGCGACGCCAGGCTCCGGGAGAGCAAAGCACCGTGTCAGGCGCATGATCCGGGGTGGCC | 0.357 |
| CCCTCATCCTGGGTGTCGGGGTGGGAGGTGTTCTCATCATGAATGGGAGGCGTACCCAGATCCAGCTCTGCCTTTTTTTAACCAAACCAGAGTGTAAACAAATGGCTGTTAATCGACATAGCAAGTGACTCACCAGATATGATACATGCCAGGAGAGAAAAAGAAAGTGCTGATGGAAAAATAATCTCATTAG | 0.381 |
| ATAGTGCAGAACCAGAAGGGTTGCCTAAAATGTACTAAAATAGAATTAATAAAATTAACATAACTCTTTAGAAATATTATACTTCAAGTCCATATTTACTTAGGGAGCATTATAAATTCCCTTATATAATTTCATCCATTGAATTACAAAAGACACGACAAAGGAGCTAATGGATATGATATTTACATTAACA | 0.491 |
| CTAAAGATGTTTTTTTCTTTTTAAATAAAGTAGATGTGGAGTTTTATCAAATTTTTTTCTGCACCTATTGATGGTTGTAATTTTTTTCAATAAGTAAACATGGTAAGCTAATTGATTTTCTTGTGTAAAACCATCTTTAACATTCCTGAGGTAAACACTACTGGATTTTTTTGCTAATATTTTGCTAATGGTC | 0.397 |

Sample 4
Target: RNA binding protein fox-1 homolog 2, RRM domain, GST-SBP tag (RBFOX2, Homo sapiens, UniProt O43251-10, residues 100-194)
Technique: RNA Bind-n-Seq
Form: RNA
Sample: in vitro
Concentration: 365 nM
Setting: natural RNA segment, single round, ends assumed
Reference: no-protein control
Direction: higher = stronger binding
All sequences stand within: GGGAGUUCUACAGUCCGACGAUC … UGGAAUUCUCGGGUGCCAA
Target sequence (chain): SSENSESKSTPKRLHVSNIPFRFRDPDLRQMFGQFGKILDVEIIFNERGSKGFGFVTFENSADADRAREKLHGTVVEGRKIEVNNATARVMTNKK
| Oligonucleotide | RBNS enrichment (R) |
| --- | --- |
| CAGCCAUUGGUCACCUUGGGUGAUGCACCAGAUAGCAGGCAGAUGUUGGUUCAUUGGCCUUCGUCCUCUUUCCUCCUAAAAUAAUAUUGGCUUUACCAUCUUAACUCAGC | 0.627 |
| AUCCCAAAGAGGCCCUGUGUCUACCAGGAGCUUCUUUUUCCAAAUGUAAUGGAUUAUGUGGAAUUGUAGUGCCAUCGGUUUUUACUUAGAGCCCUUGACGUGCUUGGACC | 0.315 |
| GGAGGCAGGUUAGGUAGUGCAGGGGCCAUUGGCAGCAGGGGCUUUGGAGUCAGACAGGCCUGGCACAGGCACUGGAGCUACUGAAUGAAGCUCUAGCUUAGCCUUCUCAG | 0.573 |
| UUUUUAAUUUUGAUUCAGAAGUAGUCCCAGCUCAUAGGUGUUCAUACUGUUACAUCCAGAACAUUUGUCAGGCUCUCUGUCAGCUUUCAUGUACAUAUGGUAUAGAAACC | 0.265 |
| AGGACCUCAGGAACAAUGUUGAUAGACCAUUUACAGGACUGUCAAGAAGCAGACUCAAUUCGAGAAUUAAAUGUGUCUGUCAUUGUGUUGAAUUUUGAUUUGUCCUUGGU | 0.364 |
| AUGAGCUGAAUCAGCAUCUCCUCCUGAGUCCCAGGGCCCCUGCAGUUCCCAGUCUCUUCUGUCCUGCAGCCCUUGCCUCUUUCCCACAGGUUCCACUUUAUAUCCACCUU | 0.442 |
| CAGCACAGCCUUUAUUGAGCUUUACAACUAACAACCUGAUAGUUGGCAGUUAAUUCACAGUUACAGAUAAUGCUUUUAUUUACAUAAAUAUACCAAGUAGUACCCUCUUA | 0.544 |
| AAGAAAAGUCAGAAGAAUCUUUAAGAUUUUAAAAAUGUCUUUAAAGUUUUUAAAAUGCUUACUACAUACUUAUAUACACCCCUUGUGAAGAACACAUGACUUUUUAAAGA | 0.547 |
| UCCCUUCUGCUUGUCCCAAAUCCGCCAGUGUUUCUGAAUGUUUGUGUCUGUGGUUGCAGUCUUUCCCCCAGGAAAAAAAAAAAAAGAAAUUCGCAUGUUUAAUGUGAACU | 1.34 |
| CAAAGGAAGUAUGUAUUGCAUUAAUCAGGGCAUAACUAAUAUUCUCCUGUUCAGAAUAAUACUUAUUUACGUGUGAAAGCAACAUGGAUGUGAUUCCCAACACAGAAUUU | 0.266 |
| GUGGCCUAUGGCCCAGGACAGCCUGGCAGGUGGCCUCGCUGCCCCCAGUUCCCCUCUCUGCCCCCACACUCGUCUUAGUUGCUUCACACUGGUCACUGGCCCUGCACACU | 0.745 |
| CAGGUGGUGUCAUGGAUGCUUUGGGGAAUCCUUCGCAGCUAUUUCCACCCCUGCCUCUGGGCACCCACCACUCACGGAUGGCAGAACCCAUUCAGUCUCCUACCUUGCAU | 0.632 |

Sample 5
Target: Fragile X messenger ribonucleoprotein 1, C-terminal low-complexity region (Fmr1, Mus musculus, UniProt P35922)
Technique: RNA Bind-n-Seq
Form: RNA
Sample: in vitro
Concentration: 200 nM
Setting: whole 134-nt RNA, ends assumed
Added: 150 mM LiCl
Reference: input library
Direction: higher = stronger binding
Library: 7-deaza-guanosine replaces G
All sequences stand within: GGGAGUUCUACAGUCCGACGAUC … UGGAAUUCUCGGGUGUCAAGG
| Oligonucleotide | log2 enrichment |
| --- | --- |
| GUCCUGUGCUACACAUCGUAUGUACCGAAUCGGGUUUUGGGGUUUUGGGGUUUUGGGGAAAGUAUUAUGUUACGCCGUUCGGAUCUGCAC | -0.459 |
| UCCUGUGCUACACAUCGUAUGUACCGAAUCGGGGUUUUUGGGGAGGGGAAAAAAAGGGGAAAGUAUUAUGUUACGCCGUUCGGAUCUGCA | -0.891 |
| CCUGUGCUACACAUCGUAUGUACCGAAUCGGGGCCCCCCGGGGCCCCCCGGCCCCCCGGGAAAGUAUUAUGUUACGCCGUUCGGAUCUGC | -2.38 |
| CUCAAGUCCUGUGCUACACAUCGUAUGUACCGAAUCGGGUUGGGUUGGGUUGGGAAAGUAUUAUGUUACGCCGUUCGGAUCUGCACUUCC | -0.12 |
| AAGUCCUGUGCUACACAUCGUAUGUACCGAAUCGGUUUUUGGUUUUUGGUUUUUGGGAAAGUAUUAUGUUACGCCGUUCGGAUCUGCACU | -1.67 |
| UCCUGUGCUACACAUCGUAUGUACCGAAUCGGGGAAAAAGGGGAAAAAGGGGUUUGGGGAAAGUAUUAUGUUACGCCGUUCGGAUCUGCA | -0.408 |
| UCAAGUCCUGUGCUACACAUCGUAUGUACCGAAUCGGGAAAGGGAAAGGGAGGGAAAGUAUUAUGUUACGCCGUUCGGAUCUGCACUUCC | -0.543 |
| AGUCCUGUGCUACACAUCGUAUGUACCGAAUCGGGUGGGUUUUUGGGUUUUUUUGGGAAAGUAUUAUGUUACGCCGUUCGGAUCUGCACU | -1.15 |
| UAACUUUAGAGGAGGAUCUGAUGGAUAUGGCAGUGGACGUGGAGUUGGGGAUGGCUAUAAUGGGUAUGGAGGAGGACCUGGAGGUGGCAA | -0.0518 |
| AGUCCUGUGCUACACAUCGUAUGUACCGAAUCGGUUUUGGGGUUUUGGGUUUUGGGGAAAGUAUUAUGUUACGCCGUUCGGAUCUGCACU | -1.27 |
| CUGUGCUACACAUCGUAUGUACCGAAUCGGGUUUUUUUGGUUUUUUUGGGUUUUUUUGGGGAAAGUAUUAUGUUACGCCGUUCGGAUCUG | 0.432 |
